Assay results collected from several papers.
Compare with care: the assays were run in different laboratories.

For `Cc1ncsc1-c1ccc(C(C)NC(=O)C2CC(O)CN2C(=O)C(NC(=O)CCCCCCCCCCN2CCCC(Nc3ncc(Cl)c(Nc4ccccc4S(=O)(=O)C(C)C)n3)C2)C(C)(C)C)cc1` (stereo not drawn), “log2 fold change” read -1.71 (22Rv1; RNA-seq, item: SMAD6 mRNA; concentration not given; reference: DMSO).
`C=C(C)C(=O)NCCCCCCCCCCOCc1cn(CCCCCCCCCCNC(=O)C(=C)C)nn1` gave an IC50 of > 50000 nM (L929; viability, alamarBlue; 3 days).
For `CCOc1cncc(-c2ccc(NC(=O)C3(c4ccnc(NS(=O)(=O)C5CC5)n4)CCOCC3)nc2)n1`, the IC50 was 51 nM (KM-H2; cell growth or viability, ATP luminescence; 72 h).
`Cn1ncc(-c2ccc3c(=O)[nH]nc(CN)c3c2)c1-c1c(F)c(Cl)cc(OC2CC2)c1C#N` gave an IC50 of 140 nM (RS4;11; cell viability, inhibitor, CellTiter-Glo; 120 h).
For `COC1CN([C@H]2CC[C@H]([C@@]3(C)Oc4c(Cl)cc(C(=O)NCc5c(SC)cc(C)[nH]c5=O)c(C)c4O3)CC2)C1`, “log2 fold change” read 0.645 (RNA-seq, item: HEMGN mouse homolog; mouse, HT-1376 xenograft, whole blood; dose not given; reference: vehicle).
`C=CC(=O)N1CCCC(n2c(=O)c3ncccc3n(Cc3ccc(Oc4ccccc4)cc3)c2=O)C1` (stereo not drawn) has an IC50 of 2500 nM (KM-H2; cell growth or viability, MTT; 72 h).
`CC(C)c1ccc(N(C)c2ccc3c(c2)OCC[C@H]3CNc2cnccc2C(=O)O)cc1` has an IC50 of ≥ 10000 nM (HCC38; cell growth or viability, ATP luminescence; 7 days).
With `C=CC(=O)Nc1cccc(Cn2ncc3cnc(Nc4cnn(CCOC)c4)nc32)c1` the binding was 78% (human CDK4-cyclinD1; KINOMEscan; 100 nM; reference: control).
`CNS(=O)(=O)Nc1nccc(Cc2c(C)c3ccc(Oc4ncccc4F)cc3oc2=O)c1F` gave an IC50 of 11.4 nM (OAW-28; cell viability; 7 days).
For `C[n+]1nn(CCCCCCCCN2C(=O)C=CC2=O)cc1COCCCCCCCCN1C(=O)C=CC1=O`, the IC50 was 34600 nM (L929; cell growth or viability; 72 h).
Under “log2 fold change”, `CN1CCCNC(=O)c2cccc(c2)C(=O)NCCCN(C)CCCNc2cccc3c2C(=O)c2cccc(c2C3=O)NCCC1` is recorded as -0.563 (SAS; RNA-Seq, item: GMPS mRNA; 1 µM, 6 h; reference: untreated cells).
The IC50 of `COC(=O)N1c2ccc3c(nc(Cc4ccccc4)n3[C@@H]3CCC[C@@H](C(=O)O)C3)c2CC[C@@H]1C` is reported as 1330 nM (BT-474; cell growth or viability, ATP luminescence; 10 days).

For quick reference, copied from above:
`C=C(C)C(=O)NCCCCCCCCCCOCc1cn(CCCCCCCCCCNC(=O)C(=C)C)nn1` gave an IC50 of > 50000 nM (L929; viability, alamarBlue; 3 days).
For `CCOc1cncc(-c2ccc(NC(=O)C3(c4ccnc(NS(=O)(=O)C5CC5)n4)CCOCC3)nc2)n1`, the IC50 was 51 nM (KM-H2; cell growth or viability, ATP luminescence; 72 h).
